{"data": "Measurements pooled from the literature", "note": "Lines come from different studies, so protocols differ.", "chain of UniProt P30874 (whole entry, looked up)": "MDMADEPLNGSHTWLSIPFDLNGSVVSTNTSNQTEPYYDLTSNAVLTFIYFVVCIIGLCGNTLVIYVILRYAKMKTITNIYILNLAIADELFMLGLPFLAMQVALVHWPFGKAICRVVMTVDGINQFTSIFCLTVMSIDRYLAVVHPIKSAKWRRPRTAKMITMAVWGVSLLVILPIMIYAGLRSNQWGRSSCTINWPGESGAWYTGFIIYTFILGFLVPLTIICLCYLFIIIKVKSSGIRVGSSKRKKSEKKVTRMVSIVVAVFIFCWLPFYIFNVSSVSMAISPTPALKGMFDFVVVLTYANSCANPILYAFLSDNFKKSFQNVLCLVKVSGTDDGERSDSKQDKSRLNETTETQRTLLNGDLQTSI", "chain of UniProt P04818 (whole entry, looked up)": "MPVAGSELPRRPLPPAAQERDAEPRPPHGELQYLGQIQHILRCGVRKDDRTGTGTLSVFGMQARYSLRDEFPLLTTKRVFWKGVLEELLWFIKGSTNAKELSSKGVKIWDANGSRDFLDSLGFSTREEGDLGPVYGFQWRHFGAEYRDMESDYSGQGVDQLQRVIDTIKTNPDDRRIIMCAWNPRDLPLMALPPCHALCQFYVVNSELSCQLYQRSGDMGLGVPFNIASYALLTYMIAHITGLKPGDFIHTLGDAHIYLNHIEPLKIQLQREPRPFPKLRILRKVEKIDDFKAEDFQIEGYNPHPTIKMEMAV", "chain of UniProt Q01650 (whole entry, looked up)": "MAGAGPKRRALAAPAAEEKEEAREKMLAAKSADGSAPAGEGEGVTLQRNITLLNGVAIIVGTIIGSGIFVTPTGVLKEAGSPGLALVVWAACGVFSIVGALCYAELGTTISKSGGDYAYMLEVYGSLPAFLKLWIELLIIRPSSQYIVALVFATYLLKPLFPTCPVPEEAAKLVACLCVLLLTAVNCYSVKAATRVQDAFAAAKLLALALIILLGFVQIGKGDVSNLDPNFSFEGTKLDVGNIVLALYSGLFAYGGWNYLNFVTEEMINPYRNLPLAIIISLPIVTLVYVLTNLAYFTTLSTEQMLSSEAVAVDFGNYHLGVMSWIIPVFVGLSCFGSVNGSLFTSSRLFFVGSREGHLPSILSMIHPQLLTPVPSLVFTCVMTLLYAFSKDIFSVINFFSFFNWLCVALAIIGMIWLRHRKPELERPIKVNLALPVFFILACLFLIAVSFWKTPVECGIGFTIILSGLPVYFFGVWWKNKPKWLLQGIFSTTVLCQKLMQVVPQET", "chain of UniProt Q99527 (whole entry, looked up)": "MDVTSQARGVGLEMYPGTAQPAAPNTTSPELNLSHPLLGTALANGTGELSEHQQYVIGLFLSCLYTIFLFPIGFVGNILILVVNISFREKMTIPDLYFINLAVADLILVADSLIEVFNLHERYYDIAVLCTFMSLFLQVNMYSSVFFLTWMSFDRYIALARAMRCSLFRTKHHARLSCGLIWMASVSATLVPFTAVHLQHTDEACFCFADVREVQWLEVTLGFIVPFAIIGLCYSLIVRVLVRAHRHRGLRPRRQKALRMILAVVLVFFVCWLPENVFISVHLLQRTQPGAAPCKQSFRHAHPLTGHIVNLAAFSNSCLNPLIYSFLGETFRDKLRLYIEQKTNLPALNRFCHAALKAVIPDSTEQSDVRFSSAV", "chain of UniProt P14061 (whole entry, looked up)": "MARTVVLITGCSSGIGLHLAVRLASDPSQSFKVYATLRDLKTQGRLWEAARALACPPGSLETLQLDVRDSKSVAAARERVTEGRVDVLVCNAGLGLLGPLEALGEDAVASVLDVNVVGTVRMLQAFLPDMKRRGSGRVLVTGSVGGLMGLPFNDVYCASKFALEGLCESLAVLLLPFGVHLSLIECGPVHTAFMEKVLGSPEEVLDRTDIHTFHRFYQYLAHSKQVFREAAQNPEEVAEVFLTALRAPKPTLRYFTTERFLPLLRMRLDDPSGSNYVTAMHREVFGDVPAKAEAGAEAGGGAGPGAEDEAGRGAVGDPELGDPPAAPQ", "chain of UniProt C7C422 (whole entry, looked up)": "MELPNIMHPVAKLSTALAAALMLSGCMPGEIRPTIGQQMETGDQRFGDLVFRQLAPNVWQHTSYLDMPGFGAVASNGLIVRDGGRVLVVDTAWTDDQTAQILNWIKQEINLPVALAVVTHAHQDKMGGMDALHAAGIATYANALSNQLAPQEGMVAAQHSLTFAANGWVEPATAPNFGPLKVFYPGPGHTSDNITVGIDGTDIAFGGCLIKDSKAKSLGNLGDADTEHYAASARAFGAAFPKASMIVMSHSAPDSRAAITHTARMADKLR", "chain of UniProt P19643 (whole entry, looked up)": "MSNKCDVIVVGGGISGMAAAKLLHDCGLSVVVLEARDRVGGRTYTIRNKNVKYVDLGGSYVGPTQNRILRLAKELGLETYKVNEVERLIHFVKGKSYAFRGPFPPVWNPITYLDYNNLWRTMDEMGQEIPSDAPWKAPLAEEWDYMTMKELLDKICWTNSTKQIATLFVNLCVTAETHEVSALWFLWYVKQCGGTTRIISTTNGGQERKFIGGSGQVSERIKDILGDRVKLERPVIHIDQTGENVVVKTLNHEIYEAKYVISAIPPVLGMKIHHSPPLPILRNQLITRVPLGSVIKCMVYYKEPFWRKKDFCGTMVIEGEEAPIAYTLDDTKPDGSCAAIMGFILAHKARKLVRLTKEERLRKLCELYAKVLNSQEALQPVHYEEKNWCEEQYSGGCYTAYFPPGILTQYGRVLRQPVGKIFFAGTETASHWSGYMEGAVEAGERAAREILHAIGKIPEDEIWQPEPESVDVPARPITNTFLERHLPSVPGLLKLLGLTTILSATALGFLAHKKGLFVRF", "chain of UniProt P49720 (whole entry, looked up)": "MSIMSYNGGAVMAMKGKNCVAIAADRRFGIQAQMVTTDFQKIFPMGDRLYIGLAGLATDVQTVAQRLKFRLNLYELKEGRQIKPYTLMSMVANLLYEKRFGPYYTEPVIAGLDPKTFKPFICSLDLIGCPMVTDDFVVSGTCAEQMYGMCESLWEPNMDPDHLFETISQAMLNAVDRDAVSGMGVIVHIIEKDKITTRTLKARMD", "chain of UniProt P30101 (whole entry, looked up)": "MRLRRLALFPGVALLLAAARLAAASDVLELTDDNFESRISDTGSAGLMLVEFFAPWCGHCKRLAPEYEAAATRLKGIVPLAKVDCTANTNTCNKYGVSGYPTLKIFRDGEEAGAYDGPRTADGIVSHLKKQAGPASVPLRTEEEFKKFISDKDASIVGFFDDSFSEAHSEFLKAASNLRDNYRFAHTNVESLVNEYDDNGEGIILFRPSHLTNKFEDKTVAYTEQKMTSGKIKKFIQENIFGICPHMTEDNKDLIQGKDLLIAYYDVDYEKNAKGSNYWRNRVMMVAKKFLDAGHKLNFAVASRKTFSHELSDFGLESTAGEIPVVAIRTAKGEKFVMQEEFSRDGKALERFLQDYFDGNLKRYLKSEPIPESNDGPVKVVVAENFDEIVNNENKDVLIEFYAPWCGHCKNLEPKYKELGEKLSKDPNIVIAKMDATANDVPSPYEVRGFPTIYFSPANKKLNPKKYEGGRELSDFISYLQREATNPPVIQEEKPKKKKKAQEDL", "chain of UniProt Q99436 (whole entry, looked up)": "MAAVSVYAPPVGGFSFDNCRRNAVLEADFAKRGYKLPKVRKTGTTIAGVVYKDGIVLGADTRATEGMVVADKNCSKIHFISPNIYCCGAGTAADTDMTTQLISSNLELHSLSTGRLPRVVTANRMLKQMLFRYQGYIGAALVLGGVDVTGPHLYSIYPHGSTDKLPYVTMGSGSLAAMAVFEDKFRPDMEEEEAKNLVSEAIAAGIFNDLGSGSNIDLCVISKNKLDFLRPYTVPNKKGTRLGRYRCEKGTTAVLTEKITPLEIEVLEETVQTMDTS", "chain of UniProt P10632 (whole entry, looked up)": "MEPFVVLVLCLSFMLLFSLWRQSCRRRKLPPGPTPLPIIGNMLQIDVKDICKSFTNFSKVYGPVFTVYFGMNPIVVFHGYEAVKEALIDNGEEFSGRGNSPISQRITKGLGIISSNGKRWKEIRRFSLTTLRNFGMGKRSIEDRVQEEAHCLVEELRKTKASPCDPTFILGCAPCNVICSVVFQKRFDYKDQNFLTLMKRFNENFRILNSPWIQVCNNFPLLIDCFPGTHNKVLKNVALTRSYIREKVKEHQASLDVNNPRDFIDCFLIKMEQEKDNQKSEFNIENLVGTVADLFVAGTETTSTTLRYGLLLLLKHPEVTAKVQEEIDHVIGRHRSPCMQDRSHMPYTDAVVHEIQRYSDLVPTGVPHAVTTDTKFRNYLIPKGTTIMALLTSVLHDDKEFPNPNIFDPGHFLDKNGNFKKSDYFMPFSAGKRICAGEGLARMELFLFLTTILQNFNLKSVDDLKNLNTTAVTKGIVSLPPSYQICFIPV", "chain of UniProt Q05097 (whole entry, looked up)": "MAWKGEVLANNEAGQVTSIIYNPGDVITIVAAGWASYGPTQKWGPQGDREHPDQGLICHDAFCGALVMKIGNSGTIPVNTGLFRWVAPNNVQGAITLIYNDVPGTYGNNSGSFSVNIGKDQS"}
{"Structure (SMILES)": "NC1CCN(Cc2ccn3ncnc(Nc4cccc(-c5nnc(C6CC6)s5)c4)c23)CC1", "target": "AAK1 (Homo sapiens, UniProt Q2M2I8)", "assay": "enzyme activity, inhibitor", "IC50": "0.1 µM"}
{"Structure (SMILES)": "C[C@]12CC[C@@H]3c4ccc(O)cc4CC[C@H]3[C@@H]1[C@H](OCCC#N)CC2=O", "target": "HSD17B1 (Homo sapiens, UniProt P14061)", "assay": "enzyme activity, inhibitor, radiometric", "IC50": "3.2 µM"}
{"Structure (SMILES)": "COc1ccc(S(=O)(=O)NCc2c[nH]nc2-c2cccs2)cc1", "target": "myosin A (Eimeria tenella, UniProt U6KUP6)", "assay": "actin-activated ATPase, inhibitor", "setting": "upper bound, enzyme-limited", "IC50": "< 0.1 µM"}
{"Structure (SMILES)": "COC(=O)[C@@H](CS)N1C(=O)c2ccc(N(C)C)cc2C1=O", "target": "blaNDM-1 (Klebsiella pneumoniae, UniProt C7C422)", "assay": "enzyme activity, inhibitor", "setting": "pH 7", "IC50": "7.9 µM"}
{"Structure (SMILES)": "Cc1ccc(CNC(=O)[C@H](CCc2ccccc2)NC(=O)[C@H](CCc2ccccc2)NC(=O)Cc2cccc(Oc3ccccc3)c2)cc1", "target": "Proteasome subunit beta type-3/PSMB7 (Homo sapiens, UniProt P49720+Q99436)", "assay": "inhibitor", "IC50": "> 100 µM"}
{"Structure (SMILES)": "N[C@@H](Cc1c[nH]c2ccc(OCc3cccc(-c4ccccc4)c3)cc12)C(=O)O", "target": "SLC7A5 (Homo sapiens, UniProt Q01650)", "assay": "transporter uptake, inhibitor, radiometric", "IC50": "24 µM"}
{"Structure (SMILES)": "O=C([O-])CN1CCN(CC(=O)[O-])CCN(CC(=O)NCCc2ccc3c(c2)C2C=CCC2C(c2cc4c(cc2Br)OCO4)N3)CCN(CC(=O)[O-])CC1.[In+3] (centres unmarked)", "target": "GPER1 (Homo sapiens, UniProt Q99527)", "assay": "ligand displacement, radioligand", "IC50": "0.0339 µM"}
{"Structure (SMILES)": "COc1ccc2c(c1OCc1ccccc1)C[C@@H](C(=O)O)N(c1nc3ccc(C#N)cc3o1)C2", "target": "Cytochrome P450 2C8 (CYP2C8, Homo sapiens, UniProt P10632)", "assay": "enzyme activity, inhibitor", "test system": "human, liver microsomes", "setting": "15 min, pH 7.4", "IC50": "> 50 µM"}
{"Structure (SMILES)": "Oc1ccc(CCC(O)CC(O)CCc2ccc(O)cc2)cc1 (centres unmarked)", "target": "Maob (Rattus norvegicus, UniProt P19643)", "assay": "enzyme activity, inhibitor", "IC50": "196 µM"}
{"Structure (SMILES)": "O=C(COCc1ccccc1)N[C@@H](Cc1cn(CCNC(=O)c2ccc(S[C@@H]3O[C@H](CO)[C@H](O)[C@H](O)[C@H]3O)cc2)nn1)C(=O)NCCO", "target": "lecA (Pseudomonas aeruginosa, UniProt Q05097)", "assay": "ligand displacement, FP", "IC50": "60.7 µM"}
{"Structure (SMILES)": "O=C(Nc1ccn(Cc2ccc(O)cc2C(F)(F)F)n1)c1c(F)cccc1F", "target": "Protein orai-3, with STIM1 (ORAI3, Homo sapiens, UniProt Q9BRQ5)", "assay": "STIM1-mediated current, inhibitor, whole-cell patch clamp", "test system": "HEK293 cells", "setting": "estimated from single concentrations", "IC50": "~3.8 µM"}
{"Structure (SMILES)": "C[C@@H](O)[C@@H]1NC(=O)[C@H](Cc2ccccc2)NC(=O)[C@H]([C@@H](C)O)NC(=O)[C@H](CCCCN)NC(=O)[C@@H](Cc2c[nH]c3ccccc23)NC(=O)[C@H](Cc2ccccc2)NC(=O)[C@H](Cc2ccccc2)NC(=O)[C@H](CC(N)=O)NC(=O)[C@H](NC(=O)[C@@H](N)Cc2ccc(Cl)cc2)CSSC[C@@H](C(=O)N[C@@H](Cc2ccc3ccccc3c2)C(N)=O)NC1=O", "target": "SSTR2 (Homo sapiens, UniProt P30874)", "assay": "ligand displacement, radioligand", "setting": "pH 8.2, cell membranes", "IC50": "0.0067 µM"}
{"Structure (SMILES)": "C=CCc1ccc(OCc2nnc(SCC(=O)Nc3ccc(F)cc3F)o2)c(OC)c1", "target": "TYMS (Homo sapiens, UniProt P04818)", "assay": "enzyme activity, inhibitor", "IC50": "1.01 µM"}
{"Structure (SMILES)": "CCCCCCCc1ccc(S(=O)(=O)N2CC2C(=O)OC)cc1 (centres unmarked)", "target": "PDIA3 (Homo sapiens, UniProt P30101)", "assay": "enzyme activity, inhibitor, absorbance", "setting": "pH 7.6", "IC50": "> 200 µM"}
{"note": "For quick reference, copied from above:"}
{"Structure (SMILES)": "COc1ccc2c(c1OCc1ccccc1)C[C@@H](C(=O)O)N(c1nc3ccc(C#N)cc3o1)C2", "target": "Cytochrome P450 2C8 (CYP2C8, Homo sapiens, UniProt P10632)", "assay": "enzyme activity, inhibitor", "test system": "human, liver microsomes", "setting": "15 min, pH 7.4", "IC50": "> 50 µM"}
